Experimental data collected from several papers.
A part holds a random share of what one study measured.

Set 1 — technique: competition protein-binding microarray; form: double-stranded DNA, one strand shown; medium: in vitro; concentration: 2 µM; with: Pho4 competitor, 0.05 µM; reading: higher = stronger binding
Target: Centromere-binding protein 1, full length, His-tagged (CBF1, Saccharomyces cerevisiae, UniProt P17106, residues 1-351)
Sequence of UniProt P17106 (whole entry, looked up): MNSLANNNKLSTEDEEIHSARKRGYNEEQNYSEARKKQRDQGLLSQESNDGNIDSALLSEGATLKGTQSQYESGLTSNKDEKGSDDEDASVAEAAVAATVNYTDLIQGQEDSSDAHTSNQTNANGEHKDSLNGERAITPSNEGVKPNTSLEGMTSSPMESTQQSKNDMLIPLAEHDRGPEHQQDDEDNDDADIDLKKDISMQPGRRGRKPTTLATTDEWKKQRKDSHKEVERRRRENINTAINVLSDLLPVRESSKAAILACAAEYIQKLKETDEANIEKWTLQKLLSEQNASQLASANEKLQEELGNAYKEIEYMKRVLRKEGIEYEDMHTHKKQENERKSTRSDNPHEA
Notes: whole 60-bp probe, lowest competitor level
Strand | fluorescence intensity [a.u.]
TGACGATTGCTCTTTCCCGTGCTTTATCGAGTAACCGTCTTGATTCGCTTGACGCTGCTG | 94.7
GTCTTGTCTCATTGTCGTGTGGGTGTCCCCACTTCAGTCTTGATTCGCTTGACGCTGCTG | 70.9
CGTCCTAGTGATTGTGCTGTGGGTGCCATGAGGAAGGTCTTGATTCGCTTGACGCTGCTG | 91.7
AGACCAGATGGTCTTCACGTTATCAATGTTGGTAAGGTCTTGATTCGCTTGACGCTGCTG | 134
TCGAACAGCCAAGTTTGCGTGGTTACAAGATAAAATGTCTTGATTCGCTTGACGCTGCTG | 73.7
CGTTCATTATCGCCCAATGTGACGGACAATCTCGGCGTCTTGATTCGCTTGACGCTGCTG | 96.9
ATAAAGTGTCCCTGTCACACTCATACAACAACTGTTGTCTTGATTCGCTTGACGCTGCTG | 76.8
TAAGATATACCTCACCACGTGAGATTATAGAAGCAAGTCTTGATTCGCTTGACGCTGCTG | 1510
CCAAGGCAGCCTCACCACGGGCGGTCTTGTGGGAAAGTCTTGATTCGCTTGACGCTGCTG | 46.1
GGGTGTTTTAAAAAGCACCTGACTTTTTCAATTGAAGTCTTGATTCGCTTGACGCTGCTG | 948
CATACCCAACCTTGTCGCGTGGGTGAAGATATTTGTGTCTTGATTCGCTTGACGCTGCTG | 98.1
CTTCTGTAAATTTGCTGAGTGGGTGGACGCGCCCCGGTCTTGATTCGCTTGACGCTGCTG | 95.3
TCTTAAAGTGTTCGGCACGCAAGATACCACCTAGGGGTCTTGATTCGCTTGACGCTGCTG | 58.1
GTTACCATTGTCCATCACGATCAAGAAACTCGCTGTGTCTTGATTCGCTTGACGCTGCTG | 74
GTAACGACTCTCTATCAGGTGCTGTTATTGCAGCGAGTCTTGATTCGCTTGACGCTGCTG | 133
GTCGACAACTACTTAGTCGTGATGGAACAGTATGGAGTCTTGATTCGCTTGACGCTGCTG | 79.7
AAAGCGGTAATTTGTCACAGAACTTCACATATCTATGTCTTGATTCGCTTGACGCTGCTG | 108
CTAACGAAGGTTTGCTAAGTGGGTGACAAGCCAAGTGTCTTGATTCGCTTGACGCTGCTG | 72.1
CTTTCCCGATCTTGGTGTGTGGGTGTAGCACATTTGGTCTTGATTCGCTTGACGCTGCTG | 80
CGAGTGTCATATTATATTAGATATTCATTTTTTTGCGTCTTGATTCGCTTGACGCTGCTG | 90.3
AAAGCGGTAATTTTTCACGTGATATCAAATATCTATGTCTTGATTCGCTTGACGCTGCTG | 6120
CTAACGAAGGTTTGTGCCGTGGGTGACAAGCCAAGTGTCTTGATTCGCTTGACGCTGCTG | 64.6

Set 2 — technique: RNA Bind-n-Seq; form: RNA; medium: in vitro; concentration: 100 nM; reference: input RNA pool; reading: higher = stronger binding
Target: RING finger protein unkempt homolog, zinc fingers 1-6, SBP tag (UNK, Homo sapiens, UniProt Q9C0B0, residues 30-357)
Sequence of UniProt Q9C0B0 (30-357, looked up): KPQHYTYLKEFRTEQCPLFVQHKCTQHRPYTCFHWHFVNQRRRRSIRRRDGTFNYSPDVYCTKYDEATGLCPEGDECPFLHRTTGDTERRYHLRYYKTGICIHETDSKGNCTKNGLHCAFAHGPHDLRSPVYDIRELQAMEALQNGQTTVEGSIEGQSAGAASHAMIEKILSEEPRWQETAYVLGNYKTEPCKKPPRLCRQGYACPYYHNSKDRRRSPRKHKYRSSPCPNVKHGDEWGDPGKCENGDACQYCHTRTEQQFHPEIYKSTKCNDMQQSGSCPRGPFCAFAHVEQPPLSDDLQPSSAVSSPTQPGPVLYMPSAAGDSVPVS
Notes: RNA with constant flanks, vertebrate orthologous sites, ends assumed
Strand | bound/input enrichment
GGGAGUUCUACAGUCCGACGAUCCUGUUGUUAAGCACUGUGUUCCAGACCUUGUCUGACUUUAGUGUAACCUAGGAGAUUUUAUAGUUUUAUUUUAAUGAAACCCUGAUUGGCACAGAGCAGUGGGAAAAGCAGUGUCUUUCACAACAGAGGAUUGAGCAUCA | 2.34 ratio
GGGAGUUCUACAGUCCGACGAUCUCCAGUCUUAUACUUAUGGUUGGCCUCAAAUCUGUUGCAUUUAUGACAAUGUAUUAUAUCUAGUUAAUUUGAGUUUAAUAUUUUUUAUUAGCCUGUAAAUAAAGAUGGCAUCUUCUACAUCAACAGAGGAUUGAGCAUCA | 0.411 ratio
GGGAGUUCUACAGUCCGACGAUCAAGAUUAUUAUUUUUUUUUUUAAAACAAUUCCAUGCAAUAUCACUUUCCUCACCUCCAGAACAAGACAACUUAAUUCUAGGCAUAUUAUUCAAAAUGUGCGAAUGUGUGAGCACGUUACGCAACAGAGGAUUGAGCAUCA | 1.83 ratio
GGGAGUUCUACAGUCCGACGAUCAGACUUAUAUUGUGGCAUAUAGUCAACAUGGAAGUAGACCAGCUCUGCCGAUUUGAAAUUUAGAUUUUUUUAAAAUUAUGUACUGGGGACAGGUCUUUGUCGCUUUACAUUGCUUCCUAGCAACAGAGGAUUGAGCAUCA | 3.56 ratio
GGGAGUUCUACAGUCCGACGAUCCAAUCUUACAUUAAACUGGUAUUUUCAAACAAUAGGAAAUUCUUAUUUUUUUUUACAGUUUAGUGUAUCUGGUUUCUACAUGGAAGACUAAACUCAUGCUUAUUGCUAAAUGUGGUCUUUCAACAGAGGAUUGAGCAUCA | 0.241 ratio
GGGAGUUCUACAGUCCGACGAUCGAGGUUUACUUCUUCCAACUUCAGUUUUUCAGGUUGUAGCUGAUUUUCUUUUUUUUGUUUUUCCCUUUCCGCUGUUCUUUUGCUUUCCCUUCUGUCUCCCCAACUUAAAAUACACAAGCUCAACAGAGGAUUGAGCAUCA | 1.62 ratio
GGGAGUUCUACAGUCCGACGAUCAUUCAAACCUGUGGUACCAUGGCCUCAUGUUGAAGGAGUAGAAGUGGACUUAGAGUCUAUUAGAAGAAAAAACAAGGCCAAAAAUGAACAGGAGCACCAUGCUGGAGGAGAUUCCCAAAACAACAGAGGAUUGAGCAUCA | 0.38 ratio
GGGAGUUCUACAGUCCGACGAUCAGAAAAUUUUAACCAAGAAUCUGAAGGUAGAAAUACAGGACCAUGGUUAUCUUCCUCACUUAGAAAUAGAUGCACACCUUUGUUCUCUAGAAGGAGGCGAGAGGGAAGAGAUGAAUCUUCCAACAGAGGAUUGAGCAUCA | 0.777 ratio
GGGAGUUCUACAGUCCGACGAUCACAUAAACUGGUAUUUUCGAACAAUAGGAAACUAUUUUUUCUCCUUUUUUUACAGUUUUAGUACGUAUCUGGCUUGUAUGUGGAAGACUAAAAAGUUGAUUUGCUAAAUGUGGUCUUUGCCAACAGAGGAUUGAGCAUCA | 0.416 ratio
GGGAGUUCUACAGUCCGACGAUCCUACACCAGAUAUUUUAACUCUUUUAAAGUUAUAAACGUGCUUUGCUUUUUGCAUUUAAAUAGAAUACUUUUAUAUUGUAAGUGCUUCAGAUGUGUGGGGAUGUUAGUUUGCUCUUAUAUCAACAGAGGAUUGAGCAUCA | 0.82 ratio
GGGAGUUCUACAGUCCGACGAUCUCUGUGUAGGAAUUAGAGUGGGUUCUCCCACUCGUCCUGUCCCAAGGAAGAAAGCUCACAUAGGUUCUUUACACACCUGAUUAUGCUGUUCUGUUUCUGUUUUCUAUUUUUACAUAUACACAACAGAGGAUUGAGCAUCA | 0.618 ratio

Set 3 — technique: protein-binding microarray; form: double-stranded DNA, one strand shown; medium: in vitro; concentration: 940 nM top; notes: 60-bp whole probe; with: salmon DNA 0.4 mg/ml; reference: random background probes; reading: higher = stronger binding; all sequences stand within: GCCTAGCAC … GTCTTGATTCGCTTGACGCTGCTG
Target: Interferon regulatory factor 5, full length, phosphomimetic (IRF5, Homo sapiens, UniProt Q13568-2, residues 1-514, S451D/S453D/S456D/S462D)
Strand | fitted relative affinity [z-score]
GAAGGTTTCGGTATCGGGACGTGCTAG | 12.4
TCATATTTTAATCACATACTGTGCTAG | 0.765
GACGGTTTCCTTTCCCTAACGTGCTAG | 2.33
TTAGATATCGCGACTGGATTAGTGCTA | -0.273
GACGGTCTCGGTTTCAGGACGTGCTAG | 4.63
CTTTATGTCCTGTCTACATGGGTGCTA | 0.197
AATGTATAACGCCATTAGCTGTGCTAG | -0.302
GACGATCTAAGTTTCGAGACGTGCTAG | 2.72
GACGGGTTCGGACTGGGGACGTGCTAG | -0.143
TTCGATATCGGGACTGGATTAGTGCTA | 0.159
GGTCTGGCTGGCTCCTGCACGTGCTAG | -0.923
TCATTTCTCTATTGCTTACTGTGCTAG | 1.75

Set 4 — technique: RNA Bind-n-Seq; form: RNA; medium: in vitro; concentration: 365 nM; reference: no-protein control; reading: higher = stronger binding
Target: RNA binding protein fox-1 homolog 2, RRM domain, GST-SBP tag (RBFOX2, Homo sapiens, UniProt O43251-10, residues 100-194)
Notes: natural RNA segment, single round, ends assumed
Residues (chain): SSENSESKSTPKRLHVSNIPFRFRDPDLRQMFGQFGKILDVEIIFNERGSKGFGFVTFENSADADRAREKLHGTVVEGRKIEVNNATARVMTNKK
Strand | RBNS enrichment (R)
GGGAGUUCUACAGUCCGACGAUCAAGAGGCCGAACAUUCCAAGUAGCAGAAGAGAGGGUCUCUCAACUCUGCUCCUCACCUGCAGAAGCCAGUUUGUUUGGCCAUGUGACAAUUGUCCUGUGUUUUUAUAGCAUGGAAUUCUCGGGUGCCAA | 0.331
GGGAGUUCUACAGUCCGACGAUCGUCCCAAGUUCUUCAGUUACAACCUAGUAGUAUACUUACUCUUCCAACUGUCCUAAGGUCACUUCCCAGCCAGCUUAGGAUCUUCAGCAUUUUUAAGAGCUGAAGCUCCCUGGAAUUCUCGGGUGCCAA | 0.594
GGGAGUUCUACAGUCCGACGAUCUGGGUGGAUACUUGAACCCCAGACGCCCCUCUGUGCUGCUGUGUCCGGAGGCGGCCUUCCCAUCUGCCUGCCCACCCGGAGCUCUUUCCGCCGGCGCAGGGUCCCAAGCCUGGAAUUCUCGGGUGCCAA | 0.332
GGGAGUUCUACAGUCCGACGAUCGUUUUGACUACGGUUAAAAUAAGUCAAAUAGUAAGUGGUAAAACACAUUUUUGUUAGUAUUGGAACUUUCUGGAGAACAUAAGGGCUAUGAGAAUGCAUAUAUAUAUUUUUGGAAUUCUCGGGUGCCAA | 0.789
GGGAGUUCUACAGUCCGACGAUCAGUUAACUUUAAAGUAUAUACAGUUUGCAAAAAAUGAUUCAAAUUAAUUGGUUUGUAUAUGUUUGUGAGAUCUAGCUUCUGAGGAAUCUCAUACAUAGUAGGAACCAUCAUGGAAUUCUCGGGUGCCAA | 0.857
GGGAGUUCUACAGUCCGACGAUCAUUCAGCCCGUUUUUUAAAAAAGCUAAAUACAGUAGCAGCCAGCAGCCAGUCACUAAGAAAGACAGUCUGCCUGGCAGCUCCUGGUGAACCUGCCUUUCUGUGAAUGUGUUGGAAUUCUCGGGUGCCAA | 0.311
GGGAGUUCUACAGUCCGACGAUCAAAAAAAAUGUUUUUAAAGGCUCUCAACCACUGUGGAGGCAGCAUAGGGUGACAGCAACCAAGGAUUAAGUAGUCAGUACACCAAGUUCUGGUCUGCUCAUGCUUCAUUGUGGAAUUCUCGGGUGCCAA | 0.613
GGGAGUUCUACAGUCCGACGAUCUUUUGCUUGGUUUUCAGUGAUAGACAUGGGAUAGCCAAAAGAAGGGACUACCUGAAACCCCUAACUGGGGCGACUGAGCCUGUAGUGUGGUCAGUUCAAAGUUGCAUUUGUGGAAUUCUCGGGUGCCAA | 2.05
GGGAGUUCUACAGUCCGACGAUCUGCAGGACCGAAAGCCAGACUCAGCCCCUUGUCUCCCUGCACCUGUCCCACUUGACAUUUUUUAACUCAUCUUUCAUAAGGAUCCUCUGAAGCCCCCUGUGUGACCUGAGUGGAAUUCUCGGGUGCCAA | 0.581

Repeated from above (set 4):
Strand | RBNS enrichment (R)
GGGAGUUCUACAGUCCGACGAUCUUUUGCUUGGUUUUCAGUGAUAGACAUGGGAUAGCCAAAAGAAGGGACUACCUGAAACCCCUAACUGGGGCGACUGAGCCUGUAGUGUGGUCAGUUCAAAGUUGCAUUUGUGGAAUUCUCGGGUGCCAA | 2.05
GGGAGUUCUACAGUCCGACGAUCGUUUUGACUACGGUUAAAAUAAGUCAAAUAGUAAGUGGUAAAACACAUUUUUGUUAGUAUUGGAACUUUCUGGAGAACAUAAGGGCUAUGAGAAUGCAUAUAUAUAUUUUUGGAAUUCUCGGGUGCCAA | 0.789
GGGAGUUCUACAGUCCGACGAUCAAGAGGCCGAACAUUCCAAGUAGCAGAAGAGAGGGUCUCUCAACUCUGCUCCUCACCUGCAGAAGCCAGUUUGUUUGGCCAUGUGACAAUUGUCCUGUGUUUUUAUAGCAUGGAAUUCUCGGGUGCCAA | 0.331
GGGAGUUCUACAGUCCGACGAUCAUUCAGCCCGUUUUUUAAAAAAGCUAAAUACAGUAGCAGCCAGCAGCCAGUCACUAAGAAAGACAGUCUGCCUGGCAGCUCCUGGUGAACCUGCCUUUCUGUGAAUGUGUUGGAAUUCUCGGGUGCCAA | 0.311
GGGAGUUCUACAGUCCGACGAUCUGCAGGACCGAAAGCCAGACUCAGCCCCUUGUCUCCCUGCACCUGUCCCACUUGACAUUUUUUAACUCAUCUUUCAUAAGGAUCCUCUGAAGCCCCCUGUGUGACCUGAGUGGAAUUCUCGGGUGCCAA | 0.581
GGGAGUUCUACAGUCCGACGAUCUGGGUGGAUACUUGAACCCCAGACGCCCCUCUGUGCUGCUGUGUCCGGAGGCGGCCUUCCCAUCUGCCUGCCCACCCGGAGCUCUUUCCGCCGGCGCAGGGUCCCAAGCCUGGAAUUCUCGGGUGCCAA | 0.332
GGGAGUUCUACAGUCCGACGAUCAGUUAACUUUAAAGUAUAUACAGUUUGCAAAAAAUGAUUCAAAUUAAUUGGUUUGUAUAUGUUUGUGAGAUCUAGCUUCUGAGGAAUCUCAUACAUAGUAGGAACCAUCAUGGAAUUCUCGGGUGCCAA | 0.857
